Experimental data collected from several papers.
Lines come from different studies, so protocols differ.

Structure (SMILES)	test	system	setting	how to read	measurement	result
Cc1ccc(Sc2ccccc2N2CCNCC2)c(C)c1	any TEAE	healthy adult men	oral, 20 mg single dose, 10 days	–	adverse event incidence	16.7%
CC[C@H](C)[C@H](NC(=O)[C@H](Cc1ccccc1)NC(=O)[C@H](CCC(=O)O)NC(=O)[C@H](CCCCNC(=O)COCCOCCNC(=O)COCCOCCNC(=O)CC[C@H](NC(=O)CCCCCCCCCCCCCCCCC(=O)O)C(=O)O)NC(=O)[C@H](C)NC(=O)[C@H](C)NC(=O)[C@H](CCC(N)=O)NC(=O)CNC(=O)[C@H](CCC(=O)O)NC(=O)[C@H](CC(C)C)NC(=O)[C@H](Cc1ccc(O)cc1)NC(=O)[C@H](CO)NC(=O)[C@H](CO)NC(=O)[C@@H](NC(=O)[C@H](CC(=O)O)NC(=O)[C@H](CO)NC(=O)[C@@H](NC(=O)[C@H](Cc1ccccc1)NC(=O)[C@@H](NC(=O)CNC(=O)[C@H](CCC(=O)O)NC(=O)C(C)(C)NC(=O)[C@@H](N)Cc1cnc[nH]1)[C@@H](C)O)[C@@H](C)O)C(C)C)C(=O)N[C@@H](C)C(=O)N[C@@H](Cc1c[nH]c2ccccc12)C(=O)N[C@@H](CC(C)C)C(=O)N[C@H](C(=O)N[C@@H](CCCNC(=N)N)C(=O)NCC(=O)N[C@@H](CCCNC(=N)N)C(=O)NCC(=O)O)C(C)C	item: Nasopharyngitis	type 2 diabetes patients	dose not given	relative to: subjects	adverse event incidence	20%
NCCONC(=O)[C@@H]1CC[C@@H]2CN1C(=O)N2OS(=O)(=O)O	item: leading to withdrawal	healthy Chinese men	intravenous, 2 g, treatment-emergent	–	adverse event incidence	0%
CC(=O)O[C@H]1C(=O)[C@@]2(C)[C@H]([C@H](OC(=O)c3ccccc3)[C@]3(O)C[C@H](OC(=O)[C@H](O)[C@@H](NC(=O)c4ccccc4)c4ccccc4)C(C)=C1C3(C)C)[C@]1(OC(C)=O)CO[C@@H]1C[C@@H]2O	item: Pyrexia	patients with advanced solid tumours	intravenous, dose not given, all grades, possibly related to drug	–	adverse event incidence	13%
Cc1c(C(=O)O)ccc2c3n(nc12)[C@@H]1[C@H](C3)N(CC2CC2)[C@@]2(C(=O)Nc3cc(Cl)ccc32)[C@H]1c1cccc(Cl)c1F	phase Ia trial, item: Constipation	cancer patients	oral, dose not given	–	adverse event incidence	24%
O=C1CCc2ccc(OCCCCN3CCN(c4cccc(Cl)c4Cl)CC3)cc2N1	item: Xerostomia	genotyped patients, CYP2D6 intermediate metabolizers	dose not given, long-acting oral or depot	–	adverse event incidence	12%
Cc1cc(Nc2ccc(S(F)(F)(F)(F)F)cc2)n2nc(C(C)(F)F)nc2n1	–	Plasmodium vivax malaria patients	oral, 600 mg	–	adverse event sinus bradycardia	0%
FC(F)(F)c1ccc(CNc2ccc(Cc3c[nH]c4ncc(Cl)cc34)cn2)cn1	item: decreased appetite	patients with advanced solid tumours	oral, dose not given, phase Ib, related to compound	–	adverse events, all grades	30%

Repeated from above:
Structure (SMILES)	test	system	setting	how to read	measurement	result
CC(=O)O[C@H]1C(=O)[C@@]2(C)[C@H]([C@H](OC(=O)c3ccccc3)[C@]3(O)C[C@H](OC(=O)[C@H](O)[C@@H](NC(=O)c4ccccc4)c4ccccc4)C(C)=C1C3(C)C)[C@]1(OC(C)=O)CO[C@@H]1C[C@@H]2O	item: Pyrexia	patients with advanced solid tumours	intravenous, dose not given, all grades, possibly related to drug	–	adverse event incidence	13%
